Experimental data collected from several papers.
Parts stem from different laboratories: compare values within a part only. Changes are numbered by the printed parent chain.

Study 1 — method: DHFR PCA, deep sequencing; sample: yeast; added: (+)-ABA 0.11 µM; baseline: wild-type fitted maximum; direction: higher = stronger binding
Target: ABI1, truncated, D143A, DHFR fusion (Arabidopsis thaliana)
Setting: methotrexate growth selection, single substitutions
Parent: PYL1, truncated, DHFR fusion (Arabidopsis thaliana); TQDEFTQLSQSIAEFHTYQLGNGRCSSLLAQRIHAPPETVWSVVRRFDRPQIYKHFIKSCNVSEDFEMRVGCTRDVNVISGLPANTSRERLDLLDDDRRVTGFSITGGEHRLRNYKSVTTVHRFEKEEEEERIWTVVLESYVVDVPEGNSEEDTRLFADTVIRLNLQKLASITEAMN; partner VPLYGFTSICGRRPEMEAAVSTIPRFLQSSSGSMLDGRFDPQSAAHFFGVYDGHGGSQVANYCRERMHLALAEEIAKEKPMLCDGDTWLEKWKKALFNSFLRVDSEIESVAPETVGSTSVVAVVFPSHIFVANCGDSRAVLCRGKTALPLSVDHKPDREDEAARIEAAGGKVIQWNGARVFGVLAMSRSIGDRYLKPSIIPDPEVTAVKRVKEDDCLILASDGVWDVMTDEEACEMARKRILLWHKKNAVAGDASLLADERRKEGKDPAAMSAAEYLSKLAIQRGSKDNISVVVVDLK
`L82G` — result for “relative binding score”: 47.8%.
Under “relative binding score”, `V145I` is recorded as 51.6%.
Under “relative binding score”, `E129H` is recorded as 28.2%.
`P146D` — result for “relative binding score”: -0.504%.
Under “relative binding score”, `T17N` is recorded as 6.67%.
`F56A` — result for “relative binding score”: 1.15%.
`S11F` — result for “relative binding score”: 23.5%.
`S117M`: “relative binding score” -6.35%.
`V142N`: “relative binding score” -0.701%.
Under “relative binding score”, `E38T` is recorded as 3.72%.
For `Q31Y`, “relative binding score” read 1.37%.
Under “relative binding score”, `A13D` is recorded as 36.5%.
`I133L` — result for “relative binding score”: 30.4%.

Study 2 — organism: Saccharomyces cerevisiae; read-out: peptide binding; method: yeast competitive growth sequencing; molecule type: peptide; strain: cyclin-Cln2 fusion strain; tested at: concentration not given; setting: RxL motif peptides; direction: direction not given
For `SNARRSLNFGGST`, the binding score was 1.43.
The binding score of `SFEPRNLLSLFED` is reported as 0.585.
With `TKVRRNLFNQELL` the binding score was 1.45.

Study 3 — method: protein binding microarray; molecule type: double-stranded DNA, one strand shown; sample: in vitro; tested at: not given; baseline: not given; direction: higher = stronger binding
Target: Histone acetyltransferase KAT6A, both winged helices, GST fusion (KAT6A, Homo sapiens, UniProt Q92794, residues 1-181)
Setting: 8-mer, flanks averaged, mean of 2 arrays, mostly near background
Target sequence (chain): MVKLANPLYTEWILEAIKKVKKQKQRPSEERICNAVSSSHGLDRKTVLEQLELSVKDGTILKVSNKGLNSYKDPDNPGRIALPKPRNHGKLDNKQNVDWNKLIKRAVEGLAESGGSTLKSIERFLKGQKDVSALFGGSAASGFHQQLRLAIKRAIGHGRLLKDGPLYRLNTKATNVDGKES
With `CGCCTGTC` the E-score was 0.0289.
The E-score of `GGAGTGGA` is reported as -0.112.
With `AACTGACG` the E-score was 0.0452.
With `ACATACCG` the E-score was 0.171.
With `ATTAGGTA` the E-score was -0.0998.
`CCTACCGA` has an E-score of -0.0367.
`TAACGAAA` has an E-score of 0.0808.
`CGGAAATA` gave an E-score of 0.115.
With `ATGGTATG` the E-score was -0.0598.
`GAAAGGAC` has an E-score of -0.0216.
`TCAGTCAA` gave an E-score of -0.0939.
With `CCCATACA` the E-score was -0.2.
`CCTCACCG` gave an E-score of 0.00438.
`GGTTGACA` has an E-score of -0.072.
The E-score of `CGAGCTCA` is reported as 0.126.
The E-score of `AGCAGGTA` is reported as -0.102.
For `ATCAGTAG`, the E-score was -0.136.
With `CGCTAATC` the E-score was 0.153.
For `GCTTCGCA`, the E-score was 0.0606.

Study 4 — method: competition protein-binding microarray; molecule type: double-stranded DNA, one strand shown; sample: in vitro; tested at: 2 µM; added: Cbf1 competitor, 0.05 µM; direction: higher = stronger binding
Target: Phosphate system positive regulatory protein PHO4, full length, GST-tagged (PHO4, Saccharomyces cerevisiae, UniProt P07270, residues 1-312)
Setting: whole 60-bp probe, lowest competitor level
Construct (chain): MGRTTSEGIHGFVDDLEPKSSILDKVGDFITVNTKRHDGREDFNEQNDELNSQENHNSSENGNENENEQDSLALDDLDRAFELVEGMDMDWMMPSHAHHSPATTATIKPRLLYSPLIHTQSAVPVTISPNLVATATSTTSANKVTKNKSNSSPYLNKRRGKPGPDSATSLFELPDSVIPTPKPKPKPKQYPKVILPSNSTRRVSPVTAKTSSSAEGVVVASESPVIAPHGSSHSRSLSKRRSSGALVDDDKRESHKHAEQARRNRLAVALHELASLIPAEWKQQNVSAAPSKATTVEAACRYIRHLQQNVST
`ACAACAAAGTCGAGTCACGTTTCTCGCAATTATTACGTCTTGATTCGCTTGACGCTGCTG` gave a fluorescence intensity of 11700 a.u.
With `CATACCCAACCTTGGCGGGTGGGTGAAGATATTTGTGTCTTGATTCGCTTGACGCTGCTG` the fluorescence intensity was 4790 a.u.
With `TAAATGGTCTCTTAATGCGTGCCGAATTTTCGTAATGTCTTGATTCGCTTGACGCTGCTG` the fluorescence intensity was 9160 a.u.
`CGTCCTAGTGATTTTCACGTGCTATCCATGAGGAAGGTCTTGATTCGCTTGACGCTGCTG` gave a fluorescence intensity of 15600 a.u.
`AGTTAGAGGAAAAAGCACGCAAAAAGGGCACACAGGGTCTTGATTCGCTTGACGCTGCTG` gave a fluorescence intensity of 6470 a.u.
`CATACCCAACCTTGGTACGTGGGTGAAGATATTTGTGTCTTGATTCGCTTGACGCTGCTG` has a fluorescence intensity of 9740 a.u.
`CAATTCGGCAAGAGGTGTTCTGCGCATCTGAATTATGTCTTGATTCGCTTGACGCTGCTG` gave a fluorescence intensity of 3440 a.u.
`GTCTTGTCTCATTGCTTCGTGGGTGTCCCCACTTCAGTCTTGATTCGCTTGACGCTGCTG` has a fluorescence intensity of 7470 a.u.
`ATATTAGCTGAAAACCACATGGACGCAGCATTCAGTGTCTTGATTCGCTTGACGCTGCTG` has a fluorescence intensity of 9070 a.u.
With `CTAACGAAGGTTTGAAGTGTGGGTGACAAGCCAAGTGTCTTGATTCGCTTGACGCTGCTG` the fluorescence intensity was 4550 a.u.
`AGGTAGATCTCTACACGTGTGCAAGCGCATAACAATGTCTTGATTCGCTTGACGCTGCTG` has a fluorescence intensity of 18100 a.u.
The fluorescence intensity of `CGTCCTAGTGATTGGGAGGTGGGTGCCATGAGGAAGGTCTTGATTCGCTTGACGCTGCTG` is reported as 6970 a.u.
`GTCTTGTCTCATTGTCACGTGGGTGTCCCCACTTCAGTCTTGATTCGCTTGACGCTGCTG` has a fluorescence intensity of 16300 a.u.
`AACAGACCTGACGGCCACGATGCAGCAGACGCTTACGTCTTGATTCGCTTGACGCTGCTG` has a fluorescence intensity of 8820 a.u.
The fluorescence intensity of `ATGAATGTTGCGAGTCACGTCTTTTGTCTCGATACCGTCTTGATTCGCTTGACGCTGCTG` is reported as 5340 a.u.
The fluorescence intensity of `CGTCCTAGTGATTGTGAGGTGGGTGCCATGAGGAAGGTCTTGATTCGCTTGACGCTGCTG` is reported as 5870 a.u.

Single results of other studies
With `PhoQ, residues 284 288 289 292 302 303 ALVSVA` the fold induction was 4.33 (PhoP, residues 12 14 15 18 19 LWHCS (Escherichia coli, UniProt P23836); Sort-seq, measured: YFP reporter; E. coli; PhoQ-PhoP variant library, added: 10 µM Mg2+; baseline: high Mg2+ state, higher = stronger signaling).

For quick reference, copied from above (study 3):
With `ACATACCG` the E-score was 0.171.
With `CGCTAATC` the E-score was 0.153.
`TAACGAAA` has an E-score of 0.0808.
With `CCCATACA` the E-score was -0.2.
The E-score of `CGAGCTCA` is reported as 0.126.
`GAAAGGAC` has an E-score of -0.0216.
With `ATTAGGTA` the E-score was -0.0998.
For `ATCAGTAG`, the E-score was -0.136.
